# Measured values of several laboratories.
# Parts stem from different laboratories: compare values within a part only.
# Chain of UniProt Q8IWQ3 (whole entry, looked up): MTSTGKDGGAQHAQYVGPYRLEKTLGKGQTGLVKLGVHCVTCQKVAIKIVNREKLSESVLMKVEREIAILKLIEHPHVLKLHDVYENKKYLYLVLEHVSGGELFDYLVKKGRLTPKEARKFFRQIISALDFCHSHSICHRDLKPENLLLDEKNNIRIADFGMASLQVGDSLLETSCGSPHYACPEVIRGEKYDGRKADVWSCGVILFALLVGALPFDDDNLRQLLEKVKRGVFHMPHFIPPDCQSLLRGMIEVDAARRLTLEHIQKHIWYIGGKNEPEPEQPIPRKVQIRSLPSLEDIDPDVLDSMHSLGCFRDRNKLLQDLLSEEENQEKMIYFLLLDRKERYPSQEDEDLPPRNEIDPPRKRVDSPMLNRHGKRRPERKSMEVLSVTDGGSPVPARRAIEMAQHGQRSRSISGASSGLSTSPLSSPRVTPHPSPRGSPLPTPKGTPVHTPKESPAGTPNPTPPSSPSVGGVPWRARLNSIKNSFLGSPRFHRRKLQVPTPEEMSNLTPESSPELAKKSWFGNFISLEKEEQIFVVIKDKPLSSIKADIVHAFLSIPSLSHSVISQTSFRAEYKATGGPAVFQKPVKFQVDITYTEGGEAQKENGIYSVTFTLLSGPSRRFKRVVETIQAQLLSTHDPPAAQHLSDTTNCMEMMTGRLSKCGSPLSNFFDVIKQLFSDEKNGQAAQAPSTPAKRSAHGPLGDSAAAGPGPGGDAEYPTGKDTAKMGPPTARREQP
# Chain of UniProt P10721 (whole entry, unmodified, looked up): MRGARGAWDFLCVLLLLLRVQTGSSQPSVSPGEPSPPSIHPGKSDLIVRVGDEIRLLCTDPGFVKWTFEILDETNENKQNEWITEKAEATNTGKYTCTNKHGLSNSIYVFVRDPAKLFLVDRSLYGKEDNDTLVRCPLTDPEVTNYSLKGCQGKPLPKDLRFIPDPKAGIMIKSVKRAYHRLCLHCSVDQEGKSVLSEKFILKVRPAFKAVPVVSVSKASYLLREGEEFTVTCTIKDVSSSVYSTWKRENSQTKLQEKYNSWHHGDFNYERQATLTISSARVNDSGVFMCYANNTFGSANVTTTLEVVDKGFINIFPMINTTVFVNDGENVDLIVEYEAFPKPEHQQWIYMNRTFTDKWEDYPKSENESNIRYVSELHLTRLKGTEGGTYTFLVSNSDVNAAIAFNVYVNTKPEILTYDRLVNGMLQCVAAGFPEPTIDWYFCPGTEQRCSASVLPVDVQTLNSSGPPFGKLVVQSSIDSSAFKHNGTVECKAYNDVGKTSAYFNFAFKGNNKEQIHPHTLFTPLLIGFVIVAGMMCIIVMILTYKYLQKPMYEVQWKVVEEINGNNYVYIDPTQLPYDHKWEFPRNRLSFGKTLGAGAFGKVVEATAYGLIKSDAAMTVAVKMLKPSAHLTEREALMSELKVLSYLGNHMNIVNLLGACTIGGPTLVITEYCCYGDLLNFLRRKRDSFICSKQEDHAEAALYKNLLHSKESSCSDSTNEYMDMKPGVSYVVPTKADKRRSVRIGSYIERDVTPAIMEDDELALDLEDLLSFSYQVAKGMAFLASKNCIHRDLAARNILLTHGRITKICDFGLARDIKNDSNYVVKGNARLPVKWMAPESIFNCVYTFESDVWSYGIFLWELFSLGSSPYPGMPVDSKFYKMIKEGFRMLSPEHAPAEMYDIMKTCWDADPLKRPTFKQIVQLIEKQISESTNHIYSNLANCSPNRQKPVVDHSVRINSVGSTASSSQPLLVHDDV
# Chain of UniProt O94921 (whole entry, looked up): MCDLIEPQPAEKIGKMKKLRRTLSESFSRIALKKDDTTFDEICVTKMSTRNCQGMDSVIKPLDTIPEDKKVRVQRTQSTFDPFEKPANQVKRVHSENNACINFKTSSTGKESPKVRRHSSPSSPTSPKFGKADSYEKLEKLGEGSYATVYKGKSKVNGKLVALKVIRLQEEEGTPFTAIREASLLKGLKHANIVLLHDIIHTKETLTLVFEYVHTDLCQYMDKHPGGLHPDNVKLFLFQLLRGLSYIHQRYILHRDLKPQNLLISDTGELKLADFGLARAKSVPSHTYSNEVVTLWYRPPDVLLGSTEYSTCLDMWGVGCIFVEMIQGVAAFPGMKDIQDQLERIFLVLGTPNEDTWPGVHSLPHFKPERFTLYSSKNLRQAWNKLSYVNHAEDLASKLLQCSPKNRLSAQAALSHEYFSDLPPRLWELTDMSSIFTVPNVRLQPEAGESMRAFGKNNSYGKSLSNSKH
# Chain of UniProt P54646 (whole entry, looked up): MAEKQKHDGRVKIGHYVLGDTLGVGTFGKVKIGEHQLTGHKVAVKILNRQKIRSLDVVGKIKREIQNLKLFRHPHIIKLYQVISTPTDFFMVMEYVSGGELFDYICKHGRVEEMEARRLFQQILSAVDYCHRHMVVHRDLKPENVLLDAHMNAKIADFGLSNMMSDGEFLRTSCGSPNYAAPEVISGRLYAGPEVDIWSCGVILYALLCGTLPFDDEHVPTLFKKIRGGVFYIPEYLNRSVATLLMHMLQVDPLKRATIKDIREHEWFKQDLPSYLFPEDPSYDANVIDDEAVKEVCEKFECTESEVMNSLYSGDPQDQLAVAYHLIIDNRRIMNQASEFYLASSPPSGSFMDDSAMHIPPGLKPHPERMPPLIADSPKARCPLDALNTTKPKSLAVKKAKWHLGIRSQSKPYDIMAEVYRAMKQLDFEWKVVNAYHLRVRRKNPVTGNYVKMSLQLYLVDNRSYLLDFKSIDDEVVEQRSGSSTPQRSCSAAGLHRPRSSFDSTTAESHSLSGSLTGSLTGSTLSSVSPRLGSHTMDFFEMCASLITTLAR
# Chain of UniProt P52564 (whole entry, looked up): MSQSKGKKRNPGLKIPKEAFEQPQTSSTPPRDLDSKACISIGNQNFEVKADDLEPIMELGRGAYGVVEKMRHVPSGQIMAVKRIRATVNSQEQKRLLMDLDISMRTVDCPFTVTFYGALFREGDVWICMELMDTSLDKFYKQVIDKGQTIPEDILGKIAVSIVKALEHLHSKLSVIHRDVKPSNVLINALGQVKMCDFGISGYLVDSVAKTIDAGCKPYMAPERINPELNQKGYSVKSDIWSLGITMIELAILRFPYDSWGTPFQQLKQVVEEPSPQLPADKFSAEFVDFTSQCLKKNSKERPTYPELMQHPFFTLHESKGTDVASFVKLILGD
# Chain of UniProt Q13555 (whole entry, looked up): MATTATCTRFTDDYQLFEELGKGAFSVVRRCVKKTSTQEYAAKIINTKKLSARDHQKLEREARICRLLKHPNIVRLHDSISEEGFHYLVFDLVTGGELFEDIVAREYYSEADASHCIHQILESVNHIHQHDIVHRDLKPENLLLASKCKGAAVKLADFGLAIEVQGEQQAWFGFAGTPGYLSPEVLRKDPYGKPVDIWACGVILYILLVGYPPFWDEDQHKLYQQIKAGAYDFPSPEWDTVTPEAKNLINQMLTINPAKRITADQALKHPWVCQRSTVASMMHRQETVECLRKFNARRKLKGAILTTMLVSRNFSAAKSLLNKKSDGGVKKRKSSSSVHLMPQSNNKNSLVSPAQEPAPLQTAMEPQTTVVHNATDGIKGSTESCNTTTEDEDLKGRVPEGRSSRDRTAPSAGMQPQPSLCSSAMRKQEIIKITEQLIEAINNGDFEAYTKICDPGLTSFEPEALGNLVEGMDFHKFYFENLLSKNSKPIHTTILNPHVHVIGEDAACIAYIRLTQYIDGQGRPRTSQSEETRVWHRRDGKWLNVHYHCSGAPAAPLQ
# Chain of UniProt Q13546 (whole entry, looked up): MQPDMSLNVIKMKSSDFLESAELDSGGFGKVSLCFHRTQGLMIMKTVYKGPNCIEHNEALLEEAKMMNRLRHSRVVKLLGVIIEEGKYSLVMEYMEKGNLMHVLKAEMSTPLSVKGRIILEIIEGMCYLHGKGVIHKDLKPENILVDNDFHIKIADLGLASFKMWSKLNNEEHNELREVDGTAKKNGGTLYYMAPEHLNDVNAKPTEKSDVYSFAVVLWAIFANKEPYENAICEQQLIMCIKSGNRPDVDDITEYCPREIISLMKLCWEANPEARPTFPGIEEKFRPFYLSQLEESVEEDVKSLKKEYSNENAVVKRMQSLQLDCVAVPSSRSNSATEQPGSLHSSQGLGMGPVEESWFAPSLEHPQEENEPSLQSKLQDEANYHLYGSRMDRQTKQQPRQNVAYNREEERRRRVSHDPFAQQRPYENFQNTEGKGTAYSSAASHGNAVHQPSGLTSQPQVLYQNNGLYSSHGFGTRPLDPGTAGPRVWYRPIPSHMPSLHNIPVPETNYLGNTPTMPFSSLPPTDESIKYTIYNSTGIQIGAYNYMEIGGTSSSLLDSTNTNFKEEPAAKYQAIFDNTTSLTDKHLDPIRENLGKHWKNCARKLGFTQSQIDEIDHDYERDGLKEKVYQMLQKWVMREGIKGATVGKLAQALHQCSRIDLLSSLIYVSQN
# Chain of UniProt Q02156 (whole entry, looked up): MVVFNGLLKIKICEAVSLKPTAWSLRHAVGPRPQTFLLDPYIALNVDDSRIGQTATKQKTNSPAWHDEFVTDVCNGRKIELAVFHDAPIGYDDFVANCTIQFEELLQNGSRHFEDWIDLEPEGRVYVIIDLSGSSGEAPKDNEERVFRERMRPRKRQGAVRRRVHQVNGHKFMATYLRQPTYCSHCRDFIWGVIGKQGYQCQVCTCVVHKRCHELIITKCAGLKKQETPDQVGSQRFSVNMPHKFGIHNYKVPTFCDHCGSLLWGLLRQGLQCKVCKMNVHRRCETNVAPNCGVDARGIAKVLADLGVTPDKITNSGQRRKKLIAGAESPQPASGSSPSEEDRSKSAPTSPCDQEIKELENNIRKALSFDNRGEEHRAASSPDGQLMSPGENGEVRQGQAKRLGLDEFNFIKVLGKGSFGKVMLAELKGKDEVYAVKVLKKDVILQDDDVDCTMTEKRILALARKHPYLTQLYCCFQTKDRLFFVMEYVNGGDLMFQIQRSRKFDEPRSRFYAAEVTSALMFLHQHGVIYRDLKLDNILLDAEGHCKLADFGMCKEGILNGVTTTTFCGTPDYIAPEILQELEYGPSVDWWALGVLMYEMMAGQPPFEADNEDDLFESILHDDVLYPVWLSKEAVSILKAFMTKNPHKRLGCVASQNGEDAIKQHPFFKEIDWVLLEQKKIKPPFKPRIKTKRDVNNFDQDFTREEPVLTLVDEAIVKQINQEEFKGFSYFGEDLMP

# Block 1
# SMILES: CC(=O)N[C@@H](Cc1c[nH]c2ccccc12)C(=O)N[C@@H](CCC(=O)C=[N+]=[N-])C(=O)OC(C)C
# Dose: dose not given
# Baseline: vehicle
test,system,log2 fold change
measured: beta-hydroxyisovalerate,"mouse, EL4 tumour-bearing, EL4 tumour",-0.106
measured: S-lactoylglutathione,"mouse, EL4 tumour-bearing, EL4 tumour",-1.1
"metabolomics, measured: cytidine 2'-monophosphate","mouse, EL4 tumour",1.64
measured: FAD,"mouse, EL4 tumour, tumour",-0.0242

# Block 2
# Cell line: HaCaT
# Concentration: 100 µM
# Time: 36 h
Compound,viability [%]
COc1cc2c(Nc3ccc(Br)cc3F)ncnc2cc1OCC1CCN(C)CC1,12.1
S=P(N1CC1)(N1CC1)N1CC1,48.7
CCN(CC)C(=O)Nc1ccc(OCC(O)CNC(C)(C)C)c(C(C)=O)c1 (centres unmarked),91.5
CC[C@H](Nc1ncnc2[nH]cnc12)c1nc2cccc(F)c2c(=O)n1-c1ccccc1,71.8
O=C(N/N=C/c1ccc([N+](=O)[O-])o1)c1ccc(O)cc1,8.45

# Block 3
# Host: human
# Sample: microsomes or S9
# Concentration: 2 µM
# Time: 0.5 h
Structure (SMILES),remaining compound
Cc1cc(C)nc(Nn2c(-c3ccccc3)nc3ccccc3c2=O)n1,52.5%
N=C(N)Nc1ccc(OCCCCCOc2ccc(NC(=N)N)cc2)cc1,55.7%
O=C(NCc1cn2ccsc2n1)c1c[nH]c2nccc(Cl)c12,61.5%

# Block 4
# Structure (SMILES): COc1ccc2[nH]c3c4[nH]c5ccc(OC)cc5c4c4c(c3c2c1)C(=O)NC4=O
# Read-out: binding
# Concentration: 1 µM
target,test,remaining binding [%]
"BRSK2 (Homo sapiens, UniProt Q8IWQ3)",,6.2
"MAP3K14 (Homo sapiens, UniProt Q99558)",,20
"EPHB2 (Homo sapiens, UniProt P29323)",competition with immobilised ligand,84

# Block 5
# Method: PRP chromatography
# Notes: linear fit, 1 mL
SMILES,"logD 1,9-decadiene/water [log units]"
CC(C)C[C@@H]1NC(=O)[C@H](C(C)C)NC(=O)[C@H](C)NC(=O)[C@H](CC(C)C)NC(=O)[C@H](C(C)C)NC(=O)[C@H](CC(C)C)NC(=O)[C@@H](CC(C)C)NC1=O,0.0587
CC(C)C[C@@H]1NC(=O)[C@H](Cc2cscn2)NC(=O)[C@@H](CC(C)C)NC(=O)[C@H](CC(C)C)NC(=O)[C@@H](CCC(=O)N2CCCC2)NC(=O)[C@H](CC(C)C)NC(=O)[C@@H](CC(C)C)NC1=O,-4.42
CC(C)C[C@@H]1NC(=O)[C@H](C)NC(=O)[C@H](Cc2cscn2)NC(=O)[C@@H](CC(C)C)NC(=O)[C@@H](CCC(=O)N2CCCC2)NC(=O)[C@H](CC(C)C)NC(=O)[C@@H](CC(C)C)NC1=O,-1.01
CC(C)C[C@@H]1NC(=O)[C@H](C(C)C)NC(=O)[C@H](CC(C)C)NC(=O)[C@@H](CC(C)C)NC(=O)[C@H](CC(C)C)NC(=O)[C@H](C(C)C)NC(=O)[C@H](Cc2cscn2)NC1=O,-0.355
CC(C)C[C@@H]1NC(=O)[C@@H](C)NC(=O)[C@H](C)NC(=O)[C@@H](C(C)C)NC(=O)[C@H](C(C)C)NC(=O)[C@H](CC(C)C)NC(=O)[C@@H](CC(C)C)NC1=O,-1.2
CC(C)C[C@@H]1NC(=O)[C@H](C(C)C)NC(=O)[C@@H](CC(C)C)NC(=O)[C@@H](CC(C)C)NC(=O)[C@H](C)NC(=O)[C@H](CC(C)C)NC(=O)[C@@H](CC(C)C)NC1=O,1.22

# Block 6
# Structure (SMILES): COc1ccc2c(c1)O[C@@H](c1ccc(OC)c(OC)c1)C[C@H]2NC(=O)C1(c2ccc3c(c2)OC(F)(F)O3)CC1
# Method: competition with immobilised ligand
# Concentration: 1 µM
target,test,remaining binding
"PRKCE (Homo sapiens, UniProt Q02156)",cell-free assay,91%
"ROCK2 (Homo sapiens, UniProt O75116)",cell-free assay,78%
"BRAF (Homo sapiens, UniProt P15056, V600E)",cell-free assay,100%
"PRKAA2 (Homo sapiens, UniProt P54646)",cell-free assay,100%
"DAPK1 (Homo sapiens, UniProt P53355)",cell-free assay,99%
"CAMK2G (Homo sapiens, UniProt Q13555)",cell-free assay,96%
"CDK14 (Homo sapiens, UniProt O94921)",cell-free assay,93%
"KIT (Homo sapiens, UniProt P10721, D816H)",cell-free assay,94%
"MAP2K6 (Homo sapiens, UniProt P52564)",cell-free assay,100%
"Myosin-IIIa (MYO3A, Homo sapiens, UniProt Q8NEV4)",binding,93%
"RIPK1 (Homo sapiens, UniProt Q13546)",cell-free assay,93%
"BRSK2 (Homo sapiens, UniProt Q8IWQ3)",cell-free assay,100%
"CLK3 (Homo sapiens, UniProt P49761)",cell-free assay,100%
"EGFR (Homo sapiens, UniProt P00533, del747-752/P753S)",cell-free assay,62%
"PRKD2 (Homo sapiens, UniProt Q9BZL6)",cell-free assay,100%
"Tyrosine-protein kinase ABL1, non-phosphorylated (ABL1, Homo sapiens, UniProt P00519, F317L)",cell-free assay,94%
"PIK3CB (Homo sapiens, UniProt P42338)",cell-free assay,89%
"TSSK3 (Homo sapiens, UniProt Q96PN8)",cell-free assay,57%
"eIF-2-alpha kinase GCN2, C-terminal kinase domain (EIF2AK4, Homo sapiens, UniProt Q9P2K8, S808G)",cell-free assay,95%
"PLK2 (Homo sapiens, UniProt Q9NYY3)",cell-free assay,81%
"HUNK (Homo sapiens, UniProt P57058)",cell-free assay,100%
"PI4KB (Homo sapiens, UniProt Q9UBF8)",cell-free assay,73%

# Further values, each from its own experiment
Compound,cell line,test,setting,quantity,value
CC(C)(C)c1cnc(CSc2cnc(NC(=O)C3CCN(CCCCSc4cccc5c4C(=O)N(C4CCC(=O)NC4=O)C5=O)CC3)s2)o1 (centres unmarked),HH,CCK-8,1 nM,viability,99.6%

# For quick reference, copied from above (block 4):
target,test,remaining binding [%]
"BRSK2 (Homo sapiens, UniProt Q8IWQ3)",,6.2
"MAP3K14 (Homo sapiens, UniProt Q99558)",,20
"EPHB2 (Homo sapiens, UniProt P29323)",competition with immobilised ligand,84
